Published values pooled from the literature.
Parts stem from different laboratories: compare values within a part only. “And” joins repeats or separate records; there may be more than shown.
Sequence of UniProt P42336 (whole entry, unmodified, looked up): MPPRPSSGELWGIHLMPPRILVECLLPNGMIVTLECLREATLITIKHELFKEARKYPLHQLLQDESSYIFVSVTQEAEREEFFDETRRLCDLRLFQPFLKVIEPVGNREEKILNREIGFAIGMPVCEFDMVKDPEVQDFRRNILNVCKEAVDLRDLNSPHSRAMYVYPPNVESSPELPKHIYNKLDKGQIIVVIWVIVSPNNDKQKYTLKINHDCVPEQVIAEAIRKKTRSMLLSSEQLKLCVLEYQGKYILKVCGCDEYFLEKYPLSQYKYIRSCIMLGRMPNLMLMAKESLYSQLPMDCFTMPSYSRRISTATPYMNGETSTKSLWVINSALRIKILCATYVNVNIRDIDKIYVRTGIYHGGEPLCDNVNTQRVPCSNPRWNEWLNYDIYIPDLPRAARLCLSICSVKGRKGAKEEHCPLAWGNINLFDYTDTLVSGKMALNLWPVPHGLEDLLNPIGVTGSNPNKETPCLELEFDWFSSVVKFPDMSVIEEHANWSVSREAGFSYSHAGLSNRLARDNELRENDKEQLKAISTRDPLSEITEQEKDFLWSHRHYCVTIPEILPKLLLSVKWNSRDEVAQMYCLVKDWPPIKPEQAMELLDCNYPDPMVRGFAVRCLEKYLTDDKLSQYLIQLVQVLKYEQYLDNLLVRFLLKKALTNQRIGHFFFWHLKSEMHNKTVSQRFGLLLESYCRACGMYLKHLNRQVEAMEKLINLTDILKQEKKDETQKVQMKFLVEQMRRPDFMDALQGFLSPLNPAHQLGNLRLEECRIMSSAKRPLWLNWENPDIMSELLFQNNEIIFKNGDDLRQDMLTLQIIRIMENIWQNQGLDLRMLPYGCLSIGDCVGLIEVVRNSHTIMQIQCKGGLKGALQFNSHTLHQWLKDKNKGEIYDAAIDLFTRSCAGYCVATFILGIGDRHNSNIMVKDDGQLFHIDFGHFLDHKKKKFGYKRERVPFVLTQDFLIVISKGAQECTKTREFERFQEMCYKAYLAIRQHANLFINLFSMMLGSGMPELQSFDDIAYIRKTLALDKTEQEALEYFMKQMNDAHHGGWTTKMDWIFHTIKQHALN
Sequence of UniProt P50750 (whole entry, looked up): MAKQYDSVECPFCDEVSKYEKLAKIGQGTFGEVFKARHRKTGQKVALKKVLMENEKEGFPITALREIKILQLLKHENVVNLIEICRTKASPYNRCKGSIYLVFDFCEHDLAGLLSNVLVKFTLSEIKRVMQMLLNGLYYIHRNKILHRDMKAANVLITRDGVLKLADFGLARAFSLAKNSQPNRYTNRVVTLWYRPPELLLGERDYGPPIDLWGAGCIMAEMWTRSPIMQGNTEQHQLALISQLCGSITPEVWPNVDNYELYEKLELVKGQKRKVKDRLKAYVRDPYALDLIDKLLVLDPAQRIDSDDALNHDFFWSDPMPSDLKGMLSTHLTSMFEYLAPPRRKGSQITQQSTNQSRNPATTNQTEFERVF
Sequence of UniProt O15197 (whole entry, looked up): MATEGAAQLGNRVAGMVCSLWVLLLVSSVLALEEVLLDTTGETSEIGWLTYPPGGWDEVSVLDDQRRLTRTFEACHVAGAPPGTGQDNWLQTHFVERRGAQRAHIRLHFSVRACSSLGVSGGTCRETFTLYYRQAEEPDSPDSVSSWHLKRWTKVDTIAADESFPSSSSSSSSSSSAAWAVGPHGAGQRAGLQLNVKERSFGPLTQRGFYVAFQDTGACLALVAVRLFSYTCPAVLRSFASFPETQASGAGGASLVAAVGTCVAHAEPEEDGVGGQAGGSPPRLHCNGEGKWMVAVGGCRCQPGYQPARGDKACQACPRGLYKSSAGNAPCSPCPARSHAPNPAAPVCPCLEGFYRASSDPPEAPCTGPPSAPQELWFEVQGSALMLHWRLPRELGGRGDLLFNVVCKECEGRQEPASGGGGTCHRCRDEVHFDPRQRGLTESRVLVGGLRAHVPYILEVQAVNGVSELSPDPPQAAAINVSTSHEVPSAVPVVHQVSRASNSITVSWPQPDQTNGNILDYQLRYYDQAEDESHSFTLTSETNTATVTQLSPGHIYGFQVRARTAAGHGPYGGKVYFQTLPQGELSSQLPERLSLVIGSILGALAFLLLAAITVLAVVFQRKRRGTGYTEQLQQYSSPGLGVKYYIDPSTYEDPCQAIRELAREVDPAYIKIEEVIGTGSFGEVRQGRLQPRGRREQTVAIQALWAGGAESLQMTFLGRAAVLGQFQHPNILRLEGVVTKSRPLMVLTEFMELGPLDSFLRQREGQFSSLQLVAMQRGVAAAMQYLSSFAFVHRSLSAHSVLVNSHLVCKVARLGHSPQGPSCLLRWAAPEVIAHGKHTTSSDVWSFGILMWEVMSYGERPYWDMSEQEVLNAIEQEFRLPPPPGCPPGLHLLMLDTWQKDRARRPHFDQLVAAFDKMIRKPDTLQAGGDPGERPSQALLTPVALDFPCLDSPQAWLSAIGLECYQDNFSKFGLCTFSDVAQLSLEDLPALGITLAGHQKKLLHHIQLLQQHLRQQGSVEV
Sequence of UniProt Q8IVH8 (whole entry, looked up): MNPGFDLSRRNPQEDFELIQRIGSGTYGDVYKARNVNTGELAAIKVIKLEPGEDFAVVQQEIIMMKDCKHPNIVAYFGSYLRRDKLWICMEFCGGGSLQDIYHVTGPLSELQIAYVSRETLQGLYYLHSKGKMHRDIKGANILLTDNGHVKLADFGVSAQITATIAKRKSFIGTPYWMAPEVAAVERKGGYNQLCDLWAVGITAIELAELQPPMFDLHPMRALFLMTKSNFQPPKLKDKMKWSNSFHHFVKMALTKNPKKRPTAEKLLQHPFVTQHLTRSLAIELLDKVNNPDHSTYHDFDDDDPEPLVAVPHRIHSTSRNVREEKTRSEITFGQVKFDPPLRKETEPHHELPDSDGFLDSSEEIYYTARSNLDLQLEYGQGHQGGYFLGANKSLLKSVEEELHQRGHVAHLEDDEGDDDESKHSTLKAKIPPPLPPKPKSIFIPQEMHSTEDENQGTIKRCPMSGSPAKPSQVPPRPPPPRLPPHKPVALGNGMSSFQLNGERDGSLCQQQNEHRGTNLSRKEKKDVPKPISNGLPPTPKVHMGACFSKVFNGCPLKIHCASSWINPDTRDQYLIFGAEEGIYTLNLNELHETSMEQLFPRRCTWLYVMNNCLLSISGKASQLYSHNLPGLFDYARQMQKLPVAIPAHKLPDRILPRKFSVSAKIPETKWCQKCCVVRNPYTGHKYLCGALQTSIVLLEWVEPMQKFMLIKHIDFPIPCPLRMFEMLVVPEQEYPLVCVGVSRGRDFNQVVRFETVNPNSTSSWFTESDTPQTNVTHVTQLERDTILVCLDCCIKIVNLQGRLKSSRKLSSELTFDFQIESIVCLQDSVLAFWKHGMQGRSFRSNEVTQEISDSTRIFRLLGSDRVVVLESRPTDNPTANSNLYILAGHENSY
Sequence of UniProt P78368 (whole entry, looked up): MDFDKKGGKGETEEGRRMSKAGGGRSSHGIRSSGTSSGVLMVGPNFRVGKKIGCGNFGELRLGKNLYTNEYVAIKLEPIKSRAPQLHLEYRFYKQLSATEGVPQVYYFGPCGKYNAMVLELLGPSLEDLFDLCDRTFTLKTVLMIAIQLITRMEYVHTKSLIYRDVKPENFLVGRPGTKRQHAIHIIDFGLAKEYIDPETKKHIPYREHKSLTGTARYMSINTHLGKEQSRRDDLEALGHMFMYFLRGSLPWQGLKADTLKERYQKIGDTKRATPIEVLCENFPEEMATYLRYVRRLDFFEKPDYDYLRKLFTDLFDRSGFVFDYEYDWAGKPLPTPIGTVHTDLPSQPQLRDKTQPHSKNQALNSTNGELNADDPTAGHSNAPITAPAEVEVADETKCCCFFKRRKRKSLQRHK

Sample 1
SMILES: CN(C(=O)c1ccccc1)c1cc(N(C)c2ccc3c(c2)CCc2ccc(C(=O)NCCN4CCOCC4)cc2C3=O)ccc1F
Observed: cell-free assay
Method: competition with immobilised ligand
Concentration: 1 µM
It gave 83% for remaining binding (MAP4K3 (Homo sapiens, UniProt Q8IVH8)).
The remaining binding was 100% (MERTK (Homo sapiens, UniProt Q12866)).
The remaining binding was 100% (EPHB6 (Homo sapiens, UniProt O15197)).
It gave 90% for remaining binding (CSNK1G2 (Homo sapiens, UniProt P78368)).
The remaining binding was 73% (PIK3CA (Homo sapiens, UniProt P42336, H1047L)).
CDK9 (Homo sapiens, UniProt P50750) — remaining binding: 97%.
It gave 87% for remaining binding (PKMYT1 (Homo sapiens, UniProt Q99640)).

Sample 2
Target: Mitogen-activated protein kinase kinase kinase kinase 4 (MAP4K4, Homo sapiens, UniProt O95819)
Sequence of UniProt O95819 (whole entry, looked up): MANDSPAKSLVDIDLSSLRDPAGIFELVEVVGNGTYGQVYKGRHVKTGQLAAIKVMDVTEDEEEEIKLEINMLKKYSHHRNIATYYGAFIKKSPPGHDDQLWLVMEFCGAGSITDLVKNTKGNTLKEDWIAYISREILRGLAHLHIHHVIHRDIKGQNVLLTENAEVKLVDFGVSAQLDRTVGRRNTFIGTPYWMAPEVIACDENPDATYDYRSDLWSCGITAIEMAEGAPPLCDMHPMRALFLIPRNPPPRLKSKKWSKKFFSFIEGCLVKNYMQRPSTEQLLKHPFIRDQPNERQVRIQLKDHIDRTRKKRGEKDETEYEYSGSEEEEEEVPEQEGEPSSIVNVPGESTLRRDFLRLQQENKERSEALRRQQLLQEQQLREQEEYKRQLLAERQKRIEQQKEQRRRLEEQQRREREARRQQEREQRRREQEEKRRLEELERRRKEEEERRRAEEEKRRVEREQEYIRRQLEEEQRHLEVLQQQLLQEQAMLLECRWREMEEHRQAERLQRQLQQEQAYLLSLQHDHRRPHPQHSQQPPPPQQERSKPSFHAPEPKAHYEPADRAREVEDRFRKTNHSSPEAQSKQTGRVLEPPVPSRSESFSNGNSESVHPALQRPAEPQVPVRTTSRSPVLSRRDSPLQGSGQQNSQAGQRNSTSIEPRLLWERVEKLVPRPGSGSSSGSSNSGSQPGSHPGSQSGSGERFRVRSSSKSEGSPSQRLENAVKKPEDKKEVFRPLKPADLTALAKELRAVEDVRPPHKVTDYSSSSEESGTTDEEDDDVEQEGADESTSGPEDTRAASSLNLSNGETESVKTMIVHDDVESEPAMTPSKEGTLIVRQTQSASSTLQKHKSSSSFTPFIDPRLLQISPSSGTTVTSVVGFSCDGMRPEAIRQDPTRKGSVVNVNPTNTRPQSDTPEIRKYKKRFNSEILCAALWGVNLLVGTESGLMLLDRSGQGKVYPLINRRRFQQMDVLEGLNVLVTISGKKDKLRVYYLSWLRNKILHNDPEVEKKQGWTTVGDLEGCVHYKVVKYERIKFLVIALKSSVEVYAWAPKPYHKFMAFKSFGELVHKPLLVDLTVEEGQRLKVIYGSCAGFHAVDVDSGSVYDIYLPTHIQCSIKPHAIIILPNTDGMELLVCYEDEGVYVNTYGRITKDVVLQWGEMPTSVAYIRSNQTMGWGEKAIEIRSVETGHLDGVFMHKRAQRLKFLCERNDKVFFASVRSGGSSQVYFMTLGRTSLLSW
Observed: enzyme activity
Action: inhibitor
Concentration: 0.5 µM
Reference: control
With Cc1ccc(NC(=O)c2ccc(CN3CCN(C)CC3)cc2)cc1Nc1nc(-c2cccnc2)cs1 the remaining activity was 72.2%.
With OCC(O)CCON=C1C(c2c(O)[nH]c3ccccc23)=Nc2ccccc21 (centres unmarked) the remaining activity was 11.6%.
For COc1ccc(OC)c2c(=S)c3ccccc3[nH]c12, the remaining activity was 101%.
O=C(O)c1ccc2c3c1cccc3c(=O)n1c3ccccc3nc21 has a remaining activity of 43.4%.
The remaining activity of C#Cc1cccc(Nc2ncnc3cc(OCCOC)c(OCCOC)cc23)c1 is reported as 76.5%.
The remaining activity of N#CC(C#N)=C(N)/C(C#N)=C/c1ccc(O)cc1 is reported as 91.2%.
For COc1ccc(C(=O)Nc2sc3c(c2C(N)=O)CCCC3)cc1OC, the remaining activity was 79.9%.
With Cc1nc(-c2ccccc2)c(-c2ccncc2)o1 the remaining activity was 85.1%.
O=C(CCCc1ccc(-c2ccccc2F)cc1)Nc1ccc(O)cc1 has a remaining activity of 92.9%.
For COc1ccc(CNC(=O)Nc2ncc([N+](=O)[O-])s2)cc1, the remaining activity was 98.8%.
CNC(=O)c1cc(Oc2ccc(NC(=O)Nc3ccc(Cl)c(C(F)(F)F)c3)cc2)ccn1 gave a remaining activity of 96.1%.
COc1cc2nccc(Oc3ccc(NC(=S)NC(=O)c4ccccc4C)cc3)c2cc1OC has a remaining activity of 87.8%.
COc1cc2ncnc(Nc3ccc(F)c(Cl)c3)c2cc1OCCCN1CCOCC1 has a remaining activity of 97.8%.
For CN(C)c1ccc(C=C2C(=O)Nc3ccccc32)cc1, the remaining activity was 74.5%.
Cn1sc(=O)n(Cc2ccccc2)c1=O has a remaining activity of 97%.

Sample 3
Structure (SMILES): Cc1ncc(-c2cc3cc(-c4c(C)ccc(O)c4C)cnc3[nH]2)cn1
Target: Membrane-associated tyrosine- and threonine-specific cdc2-inhibitory kinase (PKMYT1, Homo sapiens, UniProt Q99640)
Residues (Q99640 1-499): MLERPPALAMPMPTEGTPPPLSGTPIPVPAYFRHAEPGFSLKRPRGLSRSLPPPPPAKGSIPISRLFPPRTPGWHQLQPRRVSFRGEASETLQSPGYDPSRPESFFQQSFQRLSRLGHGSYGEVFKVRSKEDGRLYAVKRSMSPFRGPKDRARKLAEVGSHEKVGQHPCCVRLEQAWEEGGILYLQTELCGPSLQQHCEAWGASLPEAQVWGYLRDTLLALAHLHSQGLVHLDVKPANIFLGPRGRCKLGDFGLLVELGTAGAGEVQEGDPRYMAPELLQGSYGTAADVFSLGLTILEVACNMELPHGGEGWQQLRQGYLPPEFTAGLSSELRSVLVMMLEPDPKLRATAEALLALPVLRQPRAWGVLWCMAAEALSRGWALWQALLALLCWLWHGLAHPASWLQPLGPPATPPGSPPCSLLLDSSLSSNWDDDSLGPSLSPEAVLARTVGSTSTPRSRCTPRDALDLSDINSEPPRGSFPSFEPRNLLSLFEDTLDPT
It gave 14.3% for inhibition (cell-free assay, TR-FRET; 4.57 nM).
0.1235 µM — inhibition: 89.8%.
It gave -4.67% and 3.71% for inhibition (0.00051 µM).
It gave -2.51% and -0.27% for inhibition (0.00152 µM).
0.04115 µM — inhibition: 69.8%.
cell-free assay, TR-FRET; 41.15 nM — inhibition: 69.6%.
The inhibition was 102% (1.111 µM).
0.3704 µM — inhibition: 99.8%.
The inhibition was 3.71% and -4.67% (0.000508 µM).

Sample 4
Species: mouse
Medium: microsomes or S9
Concentration: 2 µM
Time: 0.5 h
CN(C)S(=O)(=O)CCNCc1ccc(-c2ccccc2)cc1 has a remaining compound of 1.75%.
The remaining compound of COc1ccccc1Cn1ccc2nc3ccn(-c4ncn[nH]4)c(=O)c3cc2c1=O is reported as 60.2%.
Cc1ccc(O[C@H]2COCC[C@H]2NC(=O)c2cnn[nH]2)cn1 has a remaining compound of 89.7%.
For c1ccc(-c2cc(CNCC3COCCO3)c3nnnn3c2)cc1 (centres unmarked), the remaining compound was 69.1%.
The remaining compound of c1ccc2c(c1)oc1c(-c3cn(C[C@H]4CCCN4)nn3)cccc12 is reported as 44%.
With Cc1cc(C)c(S(=O)(=O)NC(CCC(=O)O)C(=O)O)cc1N(C)S(C)(=O)=O (centres unmarked) the remaining compound was 91.5%.
Cc1c(Cl)c(C(=O)NN2CCOCC2)nn1C has a remaining compound of 97.9%.

Repeated from above (sample 2):
The remaining activity of N#CC(C#N)=C(N)/C(C#N)=C/c1ccc(O)cc1 is reported as 91.2%.
With Cc1nc(-c2ccccc2)c(-c2ccncc2)o1 the remaining activity was 85.1%.
O=C(CCCc1ccc(-c2ccccc2F)cc1)Nc1ccc(O)cc1 has a remaining activity of 92.9%.
With Cc1ccc(NC(=O)c2ccc(CN3CCN(C)CC3)cc2)cc1Nc1nc(-c2cccnc2)cs1 the remaining activity was 72.2%.
O=C(O)c1ccc2c3c1cccc3c(=O)n1c3ccccc3nc21 has a remaining activity of 43.4%.
